Experimental data of several laboratories.
Parts stem from different laboratories: compare values within a part only.

Study 1
Target: RNA binding protein fox-1 homolog 2, RRM domain, GST-SBP tag (RBFOX2, Homo sapiens, UniProt O43251-10, residues 100-194)
Method: RNA Bind-n-Seq
Molecule type: RNA
Sample: in vitro
Tested at: 365 nM
Notes: natural RNA segment, single round, ends assumed
Baseline: no-protein control
Reading: higher = stronger binding
Quantity: RBNS enrichment (R)
Construct (chain): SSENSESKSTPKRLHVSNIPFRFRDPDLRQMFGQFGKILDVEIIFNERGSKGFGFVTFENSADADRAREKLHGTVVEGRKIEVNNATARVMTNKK
GGGAGUUCUACAGUCCGACGAUCCACCUGAGGCAGUGUGGGAGUUGAACGACCCUGCUGUCCUUUUUAACCUGUGUUGUCCUAGACCCUGUCGGGGCAGUCAGGGGACACUAGAGAUUUGAUCUCAUGCGAGUUGGAAUUCUCGGGUGCCAA: 0.241
GGGAGUUCUACAGUCCGACGAUCAAUUAGAUUUCCCUAGGAGGUAUGACAUGCGAUUUACUGUAGGCUCUGAAUCCGAGUGCUCCAGUGCAGUGUAAUGAGCUCCAACUUGGUGUGUACUGCCUGCUGGACUGUGGAAUUCUCGGGUGCCAA: 0.952
GGGAGUUCUACAGUCCGACGAUCGAUUCUGUUUGCUCCACGUGCCUGCUUCUUGCUACUGUUCAUUUAGUAAUGGGAUCACCUCACCAUGCCAUGCUCUGGGCUCUCCCUCUCUGUCCAUUUCUGUUUUGCUUUGGAAUUCUCGGGUGCCAA: 2.42

Study 2
Target: Histone acetyltransferase KAT6A, winged helix 2, GST fusion (KAT6A, Homo sapiens, UniProt Q92794, residues 85-181)
Method: protein binding microarray
Molecule type: double-stranded DNA, one strand shown
Sample: in vitro
Tested at: not given
Notes: 8-mer, flanks averaged, mean of 2 arrays, mostly near background
Baseline: not given
Reading: higher = stronger binding
Quantity: E-score
Construct (chain): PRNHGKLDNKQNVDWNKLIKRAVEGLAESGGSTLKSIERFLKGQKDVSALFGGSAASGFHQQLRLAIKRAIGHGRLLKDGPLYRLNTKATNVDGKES
ATAAAGTG: 0.0302
CCGCCCGA: 0.063
AGGTATTG: -0.0905
GACCGAGC: 0.0969

Study 3
Target: Ras GTPase-activating protein-binding protein 1, full length (G3BP1, Homo sapiens, UniProt Q13283)
UniProt Q13283, sequence (whole entry, looked up): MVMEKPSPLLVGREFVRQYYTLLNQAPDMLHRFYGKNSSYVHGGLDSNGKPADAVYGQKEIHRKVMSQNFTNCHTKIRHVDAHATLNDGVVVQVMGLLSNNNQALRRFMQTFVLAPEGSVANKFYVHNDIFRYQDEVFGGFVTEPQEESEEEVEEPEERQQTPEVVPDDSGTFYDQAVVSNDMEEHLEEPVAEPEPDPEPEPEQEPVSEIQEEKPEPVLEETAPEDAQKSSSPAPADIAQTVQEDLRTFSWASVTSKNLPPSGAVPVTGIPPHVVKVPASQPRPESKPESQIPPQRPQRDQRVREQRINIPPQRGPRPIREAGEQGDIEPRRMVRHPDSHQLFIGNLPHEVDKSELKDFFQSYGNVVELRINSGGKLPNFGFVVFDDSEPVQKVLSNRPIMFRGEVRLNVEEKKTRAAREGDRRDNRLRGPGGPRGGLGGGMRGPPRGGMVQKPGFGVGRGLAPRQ
Method: RNA Bind-n-Seq
Molecule type: RNA
Sample: in vitro
Tested at: 200 nM
Notes: whole 134-nt RNA, ends assumed
Added: 150 mM LiCl
Baseline: input library
Reading: higher = stronger binding
Quantity: log2 enrichment
All molecules: 7-deaza-guanosine replaces G
GGGAGUUCUACAGUCCGACGAUCCAAGUCCUGUGCUACACAUCGUAUGUACCGAAUCGGUUUGGGGUUUGGGGUUUGGAAAGUAUUAUGUUACGCCGUUCGGAUCUGCACUUCUGGAAUUCUCGGGUGUCAAGG: -1.6
GGGAGUUCUACAGUCCGACGAUCAAGUCCUGUGCUACACAUCGUAUGUACCGAAUCGGGGAAAGGGGUUUGGGGUGGGGAAAGUAUUAUGUUACGCCGUUCGGAUCUGCACUUUGGAAUUCUCGGGUGUCAAGG: -0.387
GGGAGUUCUACAGUCCGACGAUCAGUCCUGUGCUACACAUCGUAUGUACCGAAUCGGAAAAAGGAAAAAGGGGAAAAAGGGAAAGUAUUAUGUUACGCCGUUCGGAUCUGCACUGGAAUUCUCGGGUGUCAAGG: -0.582
GGGAGUUCUACAGUCCGACGAUCAAGUCCUGUGCUACACAUCGUAUGUACCGAAUCGGGAAAAAAAGGGUUUGGGUGGGAAAGUAUUAUGUUACGCCGUUCGGAUCUGCACUUUGGAAUUCUCGGGUGUCAAGG: -0.934

Single results of other studies
PhoQ, residues 284 288 289 292 302 303 GANMMA — fold induction (PhoP, residues 12 14 15 18 19 SPWRL (Escherichia coli, UniProt P23836); Sort-seq, measured: YFP reporter; E. coli; PhoQ-PhoP variant library, added: 10 µM Mg2+; baseline: high Mg2+ state, higher = stronger signaling): 0.737

Excerpt of the above (study 3):
GGGAGUUCUACAGUCCGACGAUCAAGUCCUGUGCUACACAUCGUAUGUACCGAAUCGGGAAAAAAAGGGUUUGGGUGGGAAAGUAUUAUGUUACGCCGUUCGGAUCUGCACUUUGGAAUUCUCGGGUGUCAAGG: -0.934
